Results of several laboratories.
Parts stem from different laboratories: compare values within a part only.
Sequence of UniProt Q16832 (whole entry, looked up): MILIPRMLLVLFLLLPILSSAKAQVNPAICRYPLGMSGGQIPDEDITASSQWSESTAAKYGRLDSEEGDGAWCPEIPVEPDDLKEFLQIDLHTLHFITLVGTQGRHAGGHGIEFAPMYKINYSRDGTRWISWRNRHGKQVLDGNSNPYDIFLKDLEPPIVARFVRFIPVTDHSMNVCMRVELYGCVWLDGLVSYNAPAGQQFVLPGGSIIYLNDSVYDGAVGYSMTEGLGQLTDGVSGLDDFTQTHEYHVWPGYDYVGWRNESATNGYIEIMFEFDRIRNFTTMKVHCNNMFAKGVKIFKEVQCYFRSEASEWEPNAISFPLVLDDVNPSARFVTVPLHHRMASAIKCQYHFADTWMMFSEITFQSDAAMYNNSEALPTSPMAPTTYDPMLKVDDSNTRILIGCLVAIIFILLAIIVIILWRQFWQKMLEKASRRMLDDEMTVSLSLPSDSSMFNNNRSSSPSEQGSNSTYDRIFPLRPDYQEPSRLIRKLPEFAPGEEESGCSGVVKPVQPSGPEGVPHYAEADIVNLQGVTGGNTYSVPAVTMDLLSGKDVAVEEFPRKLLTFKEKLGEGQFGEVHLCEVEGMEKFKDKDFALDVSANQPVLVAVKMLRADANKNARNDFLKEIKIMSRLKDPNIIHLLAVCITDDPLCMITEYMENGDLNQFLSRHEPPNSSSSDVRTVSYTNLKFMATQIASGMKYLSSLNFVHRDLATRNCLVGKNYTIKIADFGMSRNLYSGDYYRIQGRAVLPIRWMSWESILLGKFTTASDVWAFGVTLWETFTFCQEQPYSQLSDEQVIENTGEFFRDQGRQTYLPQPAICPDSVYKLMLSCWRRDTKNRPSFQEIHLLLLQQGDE
Sequence of UniProt Q15759 (whole entry, looked up): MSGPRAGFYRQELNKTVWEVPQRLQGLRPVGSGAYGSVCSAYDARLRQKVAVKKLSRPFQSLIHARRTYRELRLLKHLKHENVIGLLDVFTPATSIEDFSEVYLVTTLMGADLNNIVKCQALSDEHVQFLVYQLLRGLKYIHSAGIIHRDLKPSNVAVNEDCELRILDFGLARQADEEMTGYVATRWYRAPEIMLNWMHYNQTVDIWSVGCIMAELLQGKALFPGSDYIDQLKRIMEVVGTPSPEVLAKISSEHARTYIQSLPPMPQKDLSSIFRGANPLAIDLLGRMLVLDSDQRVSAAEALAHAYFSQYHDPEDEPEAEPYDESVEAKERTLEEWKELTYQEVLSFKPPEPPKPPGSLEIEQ
Sequence of UniProt Q8N568 (whole entry, looked up): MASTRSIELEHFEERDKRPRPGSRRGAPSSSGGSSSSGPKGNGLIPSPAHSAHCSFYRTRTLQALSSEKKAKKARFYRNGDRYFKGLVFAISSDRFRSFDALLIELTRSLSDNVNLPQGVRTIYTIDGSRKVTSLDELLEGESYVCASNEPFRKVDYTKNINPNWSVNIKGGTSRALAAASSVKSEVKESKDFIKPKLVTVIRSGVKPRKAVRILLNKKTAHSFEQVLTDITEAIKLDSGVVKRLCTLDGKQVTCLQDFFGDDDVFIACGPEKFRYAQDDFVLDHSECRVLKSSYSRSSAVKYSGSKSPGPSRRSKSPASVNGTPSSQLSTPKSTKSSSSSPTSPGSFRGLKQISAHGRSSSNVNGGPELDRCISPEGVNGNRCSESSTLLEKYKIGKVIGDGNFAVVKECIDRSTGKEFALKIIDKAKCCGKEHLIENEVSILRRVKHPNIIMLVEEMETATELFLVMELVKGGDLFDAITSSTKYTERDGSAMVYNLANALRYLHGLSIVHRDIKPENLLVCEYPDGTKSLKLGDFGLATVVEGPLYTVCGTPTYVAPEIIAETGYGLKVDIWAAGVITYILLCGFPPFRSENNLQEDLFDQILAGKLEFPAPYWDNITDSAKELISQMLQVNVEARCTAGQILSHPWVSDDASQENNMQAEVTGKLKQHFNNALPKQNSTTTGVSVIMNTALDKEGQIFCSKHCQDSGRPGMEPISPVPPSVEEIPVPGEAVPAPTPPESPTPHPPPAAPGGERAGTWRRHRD
Sequence of UniProt P32298 (whole entry, looked up): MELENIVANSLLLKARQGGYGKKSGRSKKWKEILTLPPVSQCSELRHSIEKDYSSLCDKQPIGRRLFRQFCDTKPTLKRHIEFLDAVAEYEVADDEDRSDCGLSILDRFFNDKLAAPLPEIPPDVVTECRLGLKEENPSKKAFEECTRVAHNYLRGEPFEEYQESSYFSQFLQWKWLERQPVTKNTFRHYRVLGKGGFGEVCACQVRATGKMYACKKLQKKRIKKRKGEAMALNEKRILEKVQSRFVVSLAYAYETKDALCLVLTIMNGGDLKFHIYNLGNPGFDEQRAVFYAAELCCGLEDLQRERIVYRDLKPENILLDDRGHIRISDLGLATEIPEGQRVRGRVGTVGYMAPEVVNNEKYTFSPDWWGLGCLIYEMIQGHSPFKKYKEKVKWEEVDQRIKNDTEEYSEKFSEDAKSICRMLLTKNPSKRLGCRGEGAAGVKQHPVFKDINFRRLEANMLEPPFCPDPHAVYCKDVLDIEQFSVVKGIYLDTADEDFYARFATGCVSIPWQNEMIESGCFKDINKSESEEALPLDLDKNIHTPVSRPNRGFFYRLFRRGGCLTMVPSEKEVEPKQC
Sequence of UniProt P06493 (whole entry, looked up): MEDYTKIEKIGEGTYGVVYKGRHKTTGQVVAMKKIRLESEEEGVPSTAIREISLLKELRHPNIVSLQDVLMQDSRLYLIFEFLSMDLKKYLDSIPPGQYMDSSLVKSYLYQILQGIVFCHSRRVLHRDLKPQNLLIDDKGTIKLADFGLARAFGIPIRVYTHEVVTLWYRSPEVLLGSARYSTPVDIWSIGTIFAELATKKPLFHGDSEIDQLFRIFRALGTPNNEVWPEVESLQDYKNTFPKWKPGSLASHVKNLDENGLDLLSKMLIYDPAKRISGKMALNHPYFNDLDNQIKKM
Sequence of UniProt P9WI81 (whole entry, looked up): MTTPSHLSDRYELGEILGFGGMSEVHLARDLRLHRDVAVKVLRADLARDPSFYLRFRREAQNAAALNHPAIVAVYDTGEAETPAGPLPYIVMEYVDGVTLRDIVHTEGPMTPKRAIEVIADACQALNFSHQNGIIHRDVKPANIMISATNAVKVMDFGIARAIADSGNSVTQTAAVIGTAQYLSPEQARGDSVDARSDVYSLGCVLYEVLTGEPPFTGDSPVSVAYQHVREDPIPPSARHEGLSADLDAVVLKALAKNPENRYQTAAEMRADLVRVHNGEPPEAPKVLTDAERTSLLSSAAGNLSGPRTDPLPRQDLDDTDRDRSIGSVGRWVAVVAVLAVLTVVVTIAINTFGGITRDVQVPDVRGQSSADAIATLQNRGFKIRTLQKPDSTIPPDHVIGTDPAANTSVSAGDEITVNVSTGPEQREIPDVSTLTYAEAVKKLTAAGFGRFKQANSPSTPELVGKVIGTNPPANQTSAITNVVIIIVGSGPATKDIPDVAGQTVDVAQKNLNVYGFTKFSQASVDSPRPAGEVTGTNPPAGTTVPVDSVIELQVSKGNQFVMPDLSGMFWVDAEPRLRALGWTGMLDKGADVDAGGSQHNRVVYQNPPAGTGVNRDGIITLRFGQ
Sequence of UniProt P49761 (whole entry, looked up): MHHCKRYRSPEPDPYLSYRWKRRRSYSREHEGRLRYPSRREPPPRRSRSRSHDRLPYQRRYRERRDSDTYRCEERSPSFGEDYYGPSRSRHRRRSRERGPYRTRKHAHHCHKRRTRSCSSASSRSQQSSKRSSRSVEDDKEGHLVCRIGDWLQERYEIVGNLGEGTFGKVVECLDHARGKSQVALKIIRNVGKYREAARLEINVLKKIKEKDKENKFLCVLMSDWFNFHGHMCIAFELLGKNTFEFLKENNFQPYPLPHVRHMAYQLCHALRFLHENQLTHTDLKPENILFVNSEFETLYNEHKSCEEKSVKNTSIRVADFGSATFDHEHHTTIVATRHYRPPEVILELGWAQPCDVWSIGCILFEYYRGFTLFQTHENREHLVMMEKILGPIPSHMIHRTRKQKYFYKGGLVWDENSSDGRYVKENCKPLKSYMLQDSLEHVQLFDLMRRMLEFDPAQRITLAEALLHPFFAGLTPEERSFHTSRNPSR
Sequence of UniProt Q96L34 (whole entry, looked up): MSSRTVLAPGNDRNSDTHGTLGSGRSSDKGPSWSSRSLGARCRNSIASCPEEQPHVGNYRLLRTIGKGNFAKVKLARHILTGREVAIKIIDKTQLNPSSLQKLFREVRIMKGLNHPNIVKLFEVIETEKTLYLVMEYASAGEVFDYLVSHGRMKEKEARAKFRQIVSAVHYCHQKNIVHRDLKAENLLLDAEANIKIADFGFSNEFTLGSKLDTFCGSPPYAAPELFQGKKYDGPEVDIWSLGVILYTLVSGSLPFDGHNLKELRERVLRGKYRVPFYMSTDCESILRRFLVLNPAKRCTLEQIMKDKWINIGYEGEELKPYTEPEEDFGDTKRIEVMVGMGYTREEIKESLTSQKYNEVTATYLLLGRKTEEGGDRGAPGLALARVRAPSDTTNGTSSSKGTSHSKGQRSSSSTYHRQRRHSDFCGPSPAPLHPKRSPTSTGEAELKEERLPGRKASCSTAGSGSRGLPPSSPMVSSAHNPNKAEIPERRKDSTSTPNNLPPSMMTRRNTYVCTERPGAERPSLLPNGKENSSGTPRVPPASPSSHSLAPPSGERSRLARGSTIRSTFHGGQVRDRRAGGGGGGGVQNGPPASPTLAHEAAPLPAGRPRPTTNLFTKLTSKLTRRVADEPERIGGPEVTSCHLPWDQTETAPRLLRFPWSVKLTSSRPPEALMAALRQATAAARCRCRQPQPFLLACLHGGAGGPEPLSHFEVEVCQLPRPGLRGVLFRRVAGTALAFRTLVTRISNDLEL

Series 1 — effect on: enzyme activity; action: inhibitor; concentration: 0.5 µM; baseline: control
SMILES: COc1ccc2c(c[n+](C)c3c4cc5c(cc4ccc23)OCO5)c1OC
| target | remaining activity [%] |
| --- | --- |
| DCLK2 (Homo sapiens, UniProt Q8N568) | 96 |
| Cyclin-dependent kinase 9, with cyclin K (CDK9, Homo sapiens, UniProt P50750) | 95.6 |
| GRK4 (Homo sapiens, UniProt P32298) | 94.8 |
| CLK4 (Homo sapiens, UniProt Q9HAZ1) | 89.8 |
| MARK2 (Homo sapiens, UniProt Q7KZI7) | 95 |
| RPS6KA4 (Homo sapiens, UniProt O75676) | 88.3 |
| CLK3 (Homo sapiens, UniProt P49761) | 95.2 |
| MINK1 (Homo sapiens, UniProt Q8N4C8) | 97.5 |
| Cyclin-dependent kinase 1, with cyclin A (CDK1, Homo sapiens, UniProt P06493) | 89.7 |
| KDR (Homo sapiens, UniProt P35968) | 104 |
| DDR2 (Homo sapiens, UniProt Q16832) | 96.1 |
| MARK4 (Homo sapiens, UniProt Q96L34) | 99.3 |
| TXK (Homo sapiens, UniProt P42681) | 100 |
| MAPK11 (Homo sapiens, UniProt Q15759) | 91.6 |

Series 2 — cell line: mouse MPNST tumor cells; method: high-content nuclear imaging; item: cell number; concentration: 10 µM; time: 12 h; notes: mean of 2 replicates; baseline: plate mean; reading: higher = more cells
| Structure (SMILES) | nuclei count [z-score] |
| --- | --- |
| O=C(NCNC(=O)NC1C(=O)NC(=O)N1CO)NC1C(=O)NC(=O)N1CO (stereo not shown) | 1.4 |
| COc1ccc2c3c([nH]c2c1)[C@H](CC(C)C)N1C(=O)[C@H](CCC(=O)OC(C)(C)C)NC(=O)[C@@H]1C3 | 6.52 |
| CC[N+]1(C)CCCC(OC(=O)C(O)(c2ccccc2)c2ccccc2)C1 (stereo not shown) | 0.284 |
| COC1(C[S+]([O-])c2ccccc2)CCN(CCc2c[nH]c3ccc(F)cc23)CC1 (stereo not shown) | 1.02 |
| C[C@]12C/C(=C/O)C(=O)C[C@@H]1CC[C@@H]1[C@@H]2CC[C@@]2(C)[C@H]1CC[C@]2(C)O | 1.84 |
| CN1[C@@H]2CC[C@H]1C[C@@H](OC(=O)c1cc(Cl)cc(Cl)c1)C2 | 2.2 |

Series 3 — cell line: HaCaT; concentration: 100 µM; time: 18 h
| Compound | viability |
| --- | --- |
| COC1=C[C@@H]2[C@@H]3Cc4ccc(OC)c(O)c4[C@]2(CCN3C)CC1=O | 107% |
| Cc1cccc(C)c1N=C1NCCCS1 | 112% |
| CCN(CC)CCOC(=O)C(O)(c1ccccc1)c1ccccc1 | 117% |
| C#C[C@]1(O)C=C[C@H]2[C@@H]3CCC4=CC(=O)CC[C@@H]4[C@H]3CC[C@@]21CC | 85.2% |
| CC(CCc1ccccc1)NC(C)C(O)c1ccc(O)cc1 (stereo not shown) | 110% |
| COc1cccc2c1cc([N+](=O)[O-])c1c(C(=O)O)cc3c(c12)OCO3 | 78.3% |

Series 4 — effect on: binding; method: radioligand binding; concentration: 10 µM
Structure (SMILES): CCC(=O)N[C@@H]1CC[C@H](C(=O)N(C)c2ccc(-c3nc4ccccc4o3)cc2)C1
| target | inhibition |
| --- | --- |
| OPRD1 (Homo sapiens, UniProt P41143) | -0.0188% |
| HTR2C (Homo sapiens, UniProt P28335) | 5.92% |
| CHRM1 (Homo sapiens, UniProt P11229) | -16.6% |
| HTR2A (Homo sapiens, UniProt P28223) | -9.08% |

Further values, each from its own experiment
| SMILES | target | test | setting | endpoint | value |
| --- | --- | --- | --- | --- | --- |
| C=CC(=O)N1CCC[C@@H](n2nc(-c3ccc(Oc4ccccc4)cc3)c3c(N)ncnc32)C1 | Serine/threonine-protein kinase PknB (pknB, Mycobacterium tuberculosis, UniProt P9WI81) | enzyme activity, inhibitor | 1 µM | inhibition | 0% |
